Results pooled from the literature.
Compare with care: the assays were run in different laboratories. Several values in a cell are separate wells, animals, samples, runs or records. ± marks the error that the study gave. Values after ≈ are worked out from the molar mass of the structure shown.
Cell line: Caco-2

Structure (SMILES)	test	test system	conditions	how to read	endpoint	value
COC(=O)NC(C(=O)NN(Cc1ccc(Br)cc1)CC(O)(Cc1ccccc1)C(=O)NC1CCOC1)C(C)(C)C (stereo not shown)	–	–	pH 7.4	baseline: B-to-A over A-to-B	efflux ratio	5.5
CC[C@H](C)[C@@H]1NC(=O)[C@H](CCCCN)NC(=O)[C@H]([C@@H](C)O)NC(=O)[C@H](Cc2ccccc2)NC(=O)[C@H]([C@@H](C)CC)NC(=O)[C@@H]2CCCN2C(=O)[C@@H]2CSSC[C@@H](C(=O)N[C@@H](CCCCN)C(=O)O)NC(=O)[C@@H]3CSSC[C@H](NC(=O)[C@H](CC(N)=O)NC(=O)[C@H](Cc4ccc(O)cc4)NC(=O)[C@H](Cc4c[nH]cn4)NC(=O)[C@@H](N)CC(=O)O)C(=O)N[C@@H](C(C)C)C(=O)N[C@@H](CO)C(=O)N[C@@H](CO)C(=O)NCC(=O)NCC(=O)N[C@@H](CCC(N)=O)C(=O)N[C@@H](CSSC[C@H](NC(=O)[C@H]([C@@H](C)O)NC(=O)CNC(=O)[C@H](CCC(N)=O)NC1=O)C(=O)N[C@@H](Cc1ccc(O)cc1)C(=O)N[C@@H](CCCNC(=N)N)C(=O)NCC(=O)N[C@@H](CCCCN)C(=O)N[C@@H](C)C(=O)N[C@@H](CCCCN)C(=O)N3)C(=O)N[C@@H](CC(C)C)C(=O)N[C@@H](Cc1ccc(O)cc1)C(=O)N[C@@H](CO)C(=O)N[C@@H](C)C(=O)N2	MTT	–	up to 25.0 µM, 48 and 72 h	–	viability reduction	~25%
C1=CCCC=CCC1.F[P-](F)(F)(F)(F)F.[Pt+][c]1ccccc1P(=Nc1ccccc1)(c1ccccc1)c1ccccc1	Caco-2 monolayer transport	HBSS with HEPES	20 µM, 90 min	–	Papp	27.1 ×10⁻⁶ cm/s
COC(=O)NC(C(=O)NN(Cc1ccc(-c2cc3ccccc3s2)cc1)CC(O)(Cc1ccccc1)C(=O)NC1c2ccccc2CC1O)C(C)(C)C (stereo not shown)	–	–	pH 7.4, 1% BSA in receiver	–	Papp A-to-B	1.5 ± 0.1 ×10⁻⁶ cm/s
Cc1ncc([N+](=O)[O-])n1CCOCc1nnc(SCC(=O)c2ccc(Br)cc2)o1	cell growth or viability, MTT	–	6 µM, 48 h	–	viability	97.5%
COC(=O)NC(C(=O)NN(Cc1ccc(Br)cc1)CC(O)(Cc1ccccc1)C(=O)NC1c2ccccc2CC1O)C(C)(C)C (stereo not shown)	–	–	pH 7.4, 1% BSA in receiver	–	Papp A-to-B	97.8 ± 12 ×10⁻⁶ cm/s
O=C1CCCCC(=O)Nc2ccc3ncc(cc3c2)C(=O)NCc2cccc(c2)CNC(=O)c2cnc3ccc(cc3c2)N1	–	–	pH 6.5, intrinsic permeability, added: transporter inhibitor cocktail	–	Papp A-B	0.4 ×10⁻⁶ cm/s
C=C(C)C(=O)Nc1ccc(-c2c(-c3ccc(Oc4nccc(C)n4)cc3)c3c(N)ncnc3n2C)cc1	–	–	–	–	Papp A-B	4.7 ×10⁻⁶ cm/s
CCN(CC)CC#CCNc1ccnc2cc(Cl)ccc12	–	–	10 µM, 90 min, pH 7.4	apical to basolateral	apparent permeability	15 ×10⁻⁶ cm/s
COC(=O)c1ccc2c(c1)NC(=O)/C2=C(\Nc1ccc2c(c1)CCN2C(=O)CN1CCOCC1)c1ccccc1	–	–	20 µM, 120 min, 1% DMSO	–	efflux ratio	1.15
C[n+]1cc2cc3cc(ccc31)NC(=O)CCCCC(=O)Nc1ccc3c(c1)cc(c[n+]3C)C(=O)Nc1ccc3[nH]cc(c3c1)CCNC2=O	–	–	pH 6.5, intrinsic permeability, added: transporter inhibitor cocktail	–	Papp A-B	1.4 ×10⁻⁶ cm/s
CCC(CC)OC1C=C(C(=O)OC(OC(=O)C(N)C(C)C)C(C)C)CC(NC(=N)N)C1NC(C)=O (mixture of isomers)	–	intracellular	concentration not given, time not given, after apical transport	–	hydrolysis to parent drug	49 ± 12%
COC(=O)NC(C(=O)NN(Cc1ccc(Br)cc1)CC(O)(Cc1ccccc1)C(=O)NCc1ccccc1)C(C)(C)C (stereo not shown)	–	–	pH 7.4	baseline: B-to-A over A-to-B	efflux ratio	0.3
CCNCC#CCNc1ccnc2cc(Cl)ccc12	–	–	10 µM, 90 min, pH 7.4	basolateral to apical	apparent permeability	11 ×10⁻⁶ cm/s
COc1cc(-c2cncc(-c3ccc(N4CCN(C)CC4)cc3)c2C)cc(OC)c1OC	–	–	5 µM, 120 min, pH 7.4	–	Papp A-B	16.6 ×10⁻⁶ cm/s
COC(=O)NC(C(=O)NN(Cc1ccc(-c2ccccc2)cc1)CC(O)(Cc1ccccc1)C(=O)NC1c2ccccc2CC1O)C(C)(C)C (stereo not shown)	–	–	pH 7.4, 1% BSA in receiver	–	Papp B-to-A	27.9 ± 2 ×10⁻⁶ cm/s
C#Cc1cccc(Nc2ncnc3cc(OC)c(OCCCN4CCOCC4)cc23)c1	–	–	10 µM, 90 min, 37 °C	–	Papp (B to A)	22.91 ± 0.02 ×10⁻⁶ cm/s
COC(=O)NC(C(=O)NN(Cc1ccc(C=Cc2ccccc2)cc1)CC(O)(Cc1ccccc1)C(=O)NC1c2ccccc2CC1O)C(C)(C)C (stereo not shown)	–	–	pH 7.4, 1% BSA in receiver	–	Papp B-to-A	2.5 ± 0.1 ×10⁻⁶ cm/s
Cc1ncc([N+](=O)[O-])n1CCOCc1nnc(SCC(=O)c2ccc(O)cc2)o1	cell growth or viability, MTT	–	6 µM, 48 h	–	viability	146%
CCCCn1cc(C(=O)O)c(=O)c2cc(F)c3[nH]nnc3c21	cell growth, SRB	–	72 h	–	IC50	198 ± 44.1 µg/mL (≈ 652 µM)
CC1(C)CCN(Cc2ccc(C(=O)NC[C@]3(O)CCCN(c4cc(NCc5ccccc5)ncn4)C3)c(O)c2)CC1	–	–	10 µM, 90 min, apical to basolateral, 0.4 % DMSO	–	Papp	11.8 ×10⁻⁶ cm/s and 12.4 ×10⁻⁶ cm/s
COCCNC(=O)C(NC(=O)C(O)(Cc1ccccc1)CN(Cc1ccc(Br)cc1)NC(=O)C(NC(=O)OC)C(C)(C)C)C(C)C (stereo not shown)	–	–	pH 7.4	baseline: B-to-A over A-to-B	efflux ratio	65
Cc1ncc([N+](=O)[O-])n1CCOCc1nnc(SCC(=O)c2ccc(F)cc2)o1	cell growth or viability, MTT	–	6 µM, 48 h	–	viability	112%
COC(=O)NC(C(=O)NN(Cc1ccc(Br)cc1)CC(O)(Cc1ccccc1)C(=O)Nc1cccc(O)c1C)C(C)(C)C (stereo not shown)	–	–	pH 7.4	baseline: B-to-A over A-to-B	efflux ratio	1
CCCCn1cc(C(=O)O)c(=O)c2cc(F)c(N)c([N+](=O)[O-])c21	cell growth, SRB	–	72 h	–	IC50	205 ± 25.9 µg/mL (≈ 634 µM)

Excerpt of the above:
Structure (SMILES)	test	test system	conditions	how to read	endpoint	value
CC1(C)CCN(Cc2ccc(C(=O)NC[C@]3(O)CCCN(c4cc(NCc5ccccc5)ncn4)C3)c(O)c2)CC1	–	–	10 µM, 90 min, apical to basolateral, 0.4 % DMSO	–	Papp	11.8 ×10⁻⁶ cm/s and 12.4 ×10⁻⁶ cm/s
COCCNC(=O)C(NC(=O)C(O)(Cc1ccccc1)CN(Cc1ccc(Br)cc1)NC(=O)C(NC(=O)OC)C(C)(C)C)C(C)C (stereo not shown)	–	–	pH 7.4	baseline: B-to-A over A-to-B	efflux ratio	65
Cc1ncc([N+](=O)[O-])n1CCOCc1nnc(SCC(=O)c2ccc(F)cc2)o1	cell growth or viability, MTT	–	6 µM, 48 h	–	viability	112%
COC(=O)NC(C(=O)NN(Cc1ccc(Br)cc1)CC(O)(Cc1ccccc1)C(=O)Nc1cccc(O)c1C)C(C)(C)C (stereo not shown)	–	–	pH 7.4	baseline: B-to-A over A-to-B	efflux ratio	1
